Published values collected from several papers.
“And” joins repeats or separate records; there may be more than shown. Numbers after ± are the reported error.

Compound | target or system | test | system | setting | scale | endpoint | result
COc1cc(Nc2ncc3c(n2)-c2ccc(Cl)cc2C(c2c(F)cccc2OC)=NC3)ccc1C(=O)O | – | refers to: Headache, all grades | cancer patients, phase 1/2 | oral, dose not given, added: pembrolizumab | – | patients with adverse event | 13%
CCc1cc(C(=O)NC)c2nccc(N3CCc4c(cc(Cn5ccnc5)cc4-c4cn(C)nc4C(F)(F)F)C3=O)c2c1 | – | – | Sprague Dawley rat | oral, 50 mg/kg once daily, day 7, 7-day toxicology study | – | body weight | 269 ± 7.9 g
COc1cc(/C=C/C(=O)OC2CC(O)(C(=O)O)CC(O)C2O)ccc1O (stereo not drawn) | – | – | human plasma | mean | – | plasma concentration | 0.059 µM
CNC(=O)c1ccc(-c2cnc3ncc(Cc4ccc5ncccc5c4)n3n2)cc1F | – | refers to: Ascites | gastric cancer patients | oral, 600 mg twice daily, expansion cohort, grade 3-4 | – | patients with adverse event | 11%
CCCCOC(=O)N1CCN(C(=O)[C@H](CP(=O)(O)O)NC(=O)c2cc(N3CC[C@H](OC)C3)nc(-c3ccccc3)n2)CC1 | – | refers to: creatinine | human, serum | 8 mg, 24 h post-dose | – | change from baseline | 0.8 ± 9.4 µmol/L
Cc1c2oc3c(C)ccc(C(=O)N[C@@H]4C(=O)N[C@H](C(C)C)C(=O)N5CCC[C@H]5C(=O)N(C)CC(=O)N(C)[C@@H](C(C)C)C(=O)O[C@@H]4C)c3nc-2c(C(=O)N[C@@H]2C(=O)N[C@H](C(C)C)C(=O)N3CCC[C@H]3C(=O)N(C)CC(=O)N(C)[C@@H](C(C)C)C(=O)O[C@@H]2C)c(N)c1=O | – | LC-MS | children with cancer, plasma | dose not given, 8 h | – | median plasma concentration | 2.8 µg/L
CN1C(C(=O)Nc2ccccn2)=C(O)c2sc(Cl)cc2S1(=O)=O | COS-7 | WST-8 | – | 30 µM, 24 h, 0.1% DMSO, unit not given | relative to: vehicle control | metabolic activity | 0.96 ± 0.02
CCn1c(=O)c(-c2cc(NC(=O)Nc3ccccc3)c(F)cc2Br)cc2cnc(NC)cc21 | – | refers to: investigations | human, moderate hepatic impairment | oral, 50 mg single dose | – | participants with grade ≥ 3 TEAE | 12.5%
O=C(Nc1nc2cccc(-c3ccc(CN4CCS(=O)(=O)CC4)cc3)n2n1)C1CC1 | – | – | rheumatoid arthritis patients | oral, 100 mg twice daily, 4 weeks, regardless of relatedness | – | patients with rheumatoid arthritis | 0%
O=c1c(O)c(-c2ccc(O)cc2)oc2cc(O)cc(O)c12 | – | – | human plasma | median, both sexes | – | plasma concentration | 97.6 µM
CCO[C@H]1CCN(Cc2c(OC)cc(C)c3[nH]ccc23)[C@H](c2ccc(C(=O)O)cc2)C1 | – | – | C57BL/6 mouse | oral, 10 mg/kg, dose-normalised to 1 mg/kg | – | AUC(0-7 h) | 760 nM·h
O=C(N[C@H](CO)[C@H](O)c1ccc([N+](=O)[O-])cc1)C(Cl)Cl | – | starch gel membrane permeability | Gram-negative envelope surrogate | 200 µM, 20 min, pH 7.4 | – | amount permeated | 1.98 nmol
CCN1CCN(c2cc(N3CCN(CC)CC3)nc(NCCNc3ccnc4cc(Cl)ccc34)n2)CC1 | COS-7 | – | – | 20 µM, 24 h, 0.1% DMSO, unit not given | relative to: vehicle control | confluence | 0.4 ± 0.06
Cc1nc2ccc(OCc3ccc(C(F)(F)F)cc3)cc2[nH]1 | – | – | male Balb/c mice, heart | oral, 10 mg/kg, 72 h | relative to: tissue over plasma | tissue/plasma ratio | 5.3 ± 2.6
O=C(O)CCC(=O)O.[2H]C([2H])([2H])Oc1cc(C)c2[nH]ccc2c1CN1CC[C@@H](C2CC2)C[C@H]1c1ccc(C(=O)O)cc1 | – | multiple ascending dose | healthy Chinese subjects | 300 mg once daily | – | subjects with any TEAE | 62.5%
CCOc1c([C@H](C)n2nc(C)c3c(N)ncnc32)cc(Cl)c(F)c1[C@@H]1CNC(=O)C1 | – | ECG | previously treated B-cell malignancy patients | oral, 30 mg once daily, baseline below thresholds | – | observations with HR ≤100 bpm | 97.6%
CN(C)CCCNC(=O)/C(=C/CCCCC(=O)NO)COc1cccc2ccccc12 | – | – | human | iv, 312.5 mg/m2, day 1, single dose, mean | – | MRT(0-inf) | 7.51 h
Cc1cc(O)c2c(c1)C(=O)c1cc(O)cc(O)c1C2=O | HepaRG co-cultured with HK-2 | MTT | – | 133.33 µM, 24 h | relative to: untreated control | cell viability | 51.7 ± 9.77%
COc1ccc2c3c([nH]c2c1)[C@H](CC(C)C)N1C(=O)[C@H](CC(=O)NC(C)C)NC(=O)[C@@H]1C3 | – | – | wild-type mouse, male, serum | oral, 100 mg/kg, 1 h | – | serum concentration | 44.1 µM and 28.1 µM and 39.6 µM
O=C1c2cccc(O)c2C(=O)c2c(O)cc(CO)cc21 | HepaRG co-cultured with HK-2 | MTT | – | 16.67 µM, 48 h | relative to: untreated control | cell viability | 79.2 ± 3.78%
CN[C@H](CC(C)C)C(=O)N[C@H]1C(=O)N[C@@H](CC(N)=O)C(=O)N[C@H]2C(=O)N[C@H]3C(=O)N[C@H](C(=O)N[C@H](C(=O)O)c4cc(O)cc(O)c4-c4cc3ccc4O)[C@H](O)c3ccc(c(Cl)c3)Oc3cc2cc(c3O[C@@H]2O[C@H](CO)[C@@H](O)[C@H](O)[C@H]2O[C@H]2C[C@](C)(N)[C@H](O)[C@H](C)O2)Oc2ccc(cc2Cl)[C@H]1O | – | – | C57BL/6N mouse H2, faeces | po, 0.5 mL, 20 mg/mL solution | – | elimination rate constant | 0.12 h⁻¹
O=C(COc1ccc(Cl)cc1)NC12CC(c3nnc([C@H]4C[C@@H](OC(F)(F)F)C4)o3)(C1)C2 | – | refers to: Headache | human | oral, dose not given, 14 days | – | adverse event incidence | 55.9%
CCCCOc1nc(N)c2c(n1)N(Cc1cccc(CN3CCCC3)c1)CC(=O)N2 | – | refers to: Dizziness | human | oral, 2 mg | – | drug-related TEAE incidence | 0%
CNCCOC12CC3(C)CC(C)(CC(Cn4ncc(-c5ccc(N6CCc7cccc(C(=O)Nc8nc9ccccc9s8)c7C6)nc5C(=O)O)c4C)(C3)C1)C2 | – | – | beagle dog, male, anaesthetised | intravenous bolus, 0.03 mg/kg, 180 min | relative to: baseline | heart rate change | 1%

Some of these lines once more:
Compound | target or system | test | system | setting | scale | endpoint | result
Cc1c2oc3c(C)ccc(C(=O)N[C@@H]4C(=O)N[C@H](C(C)C)C(=O)N5CCC[C@H]5C(=O)N(C)CC(=O)N(C)[C@@H](C(C)C)C(=O)O[C@@H]4C)c3nc-2c(C(=O)N[C@@H]2C(=O)N[C@H](C(C)C)C(=O)N3CCC[C@H]3C(=O)N(C)CC(=O)N(C)[C@@H](C(C)C)C(=O)O[C@@H]2C)c(N)c1=O | – | LC-MS | children with cancer, plasma | dose not given, 8 h | – | median plasma concentration | 2.8 µg/L
Cc1nc2ccc(OCc3ccc(C(F)(F)F)cc3)cc2[nH]1 | – | – | male Balb/c mice, heart | oral, 10 mg/kg, 72 h | relative to: tissue over plasma | tissue/plasma ratio | 5.3 ± 2.6
